Measured values gathered from unrelated publications.
Numbered parts are unrelated; each lists some results of a single study. Changes are numbered by the printed parent chain.

Study 1
Target: Fragile X messenger ribonucleoprotein 1, C-terminal low-complexity region (Fmr1, Mus musculus, UniProt P35922)
Technique: RNA Bind-n-Seq
Form: RNA
Matrix: in vitro
Concentration: 200 nM
Setting: whole 134-nt RNA, ends assumed
Added: 150 mM KCl
Relative to: input library
Direction: higher = stronger binding
Constant ends, left off below: GGGAGUUCUACAGUCCGACGAUC … UGGAAUUCUCGGGUGUCAAGG
| Sequence | log2 enrichment |
| --- | --- |
| AGUCCUGUGCUACACAUCGUAUGUACCGAAUCGGGGAAAGGGGUUUGGGGUUUGGGGAAAGUAUUAUGUUACGCCGUUCGGAUCUGCACU | 0.939 |
| CACAGACAACACGCACCCACACAGACACAGAGGGAAGGGGUUGGGAUGGGGACAGGGUGCACAGCAAAACGGGGUAGGACCCCAGCCCCU | 1.29 |
| UCAAGUCCUGUGCUACACAUCGUAUGUACCGAAUCGGUUUUUGGAAAAAGGUGGAAAGUAUUAUGUUACGCCGUUCGGAUCUGCACUUCC | -0.506 |
| UAACUUUAGAGGAGGAUCUGAUGGAUAUGGCAGUGGACGUGGAUUUGGGGAUGGCUAUAAUGGGUAUGGAGGAGGACCUGGGGGUGGCAA | 0.0985 |
| GUCCUGUGCUACACAUCGUAUGUACCGAAUCGGGAAAAAGGGAAAGGGUUUUUUUGGGAAAGUAUUAUGUUACGCCGUUCGGAUCUGCAC | -0.401 |
| ACCAUGCAGGUGGGCAUCUUUGGGAAGUGGGGCAAGGGGGGGAUAGGGAGGGGGGUAACACUUUGGGAACAGGUGGUCCCAAGUCGUUUC | 0.721 |
| CAAGUCCUGUGCUACACAUCGUAUGUACCGAAUCGGUGGAAAAAAAGGAAAAAGGAAAGUAUUAUGUUACGCCGUUCGGAUCUGCACUUC | -0.503 |
| CAAGUCCUGUGCUACACAUCGUAUGUACCGAAUCGGGGUGGGGAAAGGGGUGGGGAAAGUAUUAUGUUACGCCGUUCGGAUCUGCACUUC | 1.34 |
| CACAGACAACACGCACCCACACAGACACAGAGGGAAGGGGUUGGGAUAAAGACAGGGUGCACAGCAGGGCGGGGUAGGACCCCAGCCCCU | 0.432 |
| ACCAUGCAGGUGGGCAUCUUUGGGUAGUGGGGCAAGGGGGGGAUAGGGAGGGGGGUAACACUUUGGGAACAGGUGGUCCCAGGUCGUUUC | 0.755 |
| GCAGGAAGUAAAAACAAAUGGAAAUGCUUCGGAUAGUGGCAGGGCUGGGGGUUGCUAAGGAAAGGGUGGGAUGGGAGUGGGUAAAGAGUU | 0.312 |
| UCCUGUGCUACACAUCGUAUGUACCGAAUCGGGAAAAAAGGGAAAAAAGGGAAAAAAGGAAAGUAUUAUGUUACGCCGUUCGGAUCUGCA | -0.184 |
| CCUGUGCUACACAUCGUAUGUACCGAAUCGGUUUUUUUGGGUUUUUUUGGGUUUUUUUGGAAAGUAUUAUGUUACGCCGUUCGGAUCUGC | -0.291 |
| AAGUCCUGUGCUACACAUCGUAUGUACCGAAUCGGGAAAGGGUUUUUGGGUUUGGGAAAGUAUUAUGUUACGCCGUUCGGAUCUGCACUU | 0.619 |

Study 2
Target: Interferon regulatory factor 5, full length, phosphomimetic (IRF5, Homo sapiens, UniProt Q13568-2, residues 1-514, K96S/S451D/S453D/S456D/S462D)
Technique: protein-binding microarray
Form: double-stranded DNA, one strand shown
Matrix: in vitro
Concentration: 250 nM
Setting: 60-bp whole probe
Added: salmon DNA 0.4 mg/ml
Relative to: random background probes
Direction: higher = stronger binding
Constant ends, left off below: GCCTAGCAC … GTCTTGATTCGCTTGACGCTGCTG
| Sequence | log fluorescence [z-score] |
| --- | --- |
| TTAGATATAAGTATCGATTAGTGCTAG | 6.28 |
| TTAGGTTGCGGTTTCGGTTAGTGCTAG | 8.81 |
| GACGGTATCCTTCTTCTGACGTGCTAG | 0.277 |
| GACGGACAGGGGTTTCGGGACGTGCTA | 1.39 |
| TCACCTCTCTGTCCCCCTTTGTGCTAG | 0.262 |
| AACGGTATCGGACTGGGGACGTGCTAG | 1.24 |
| GTCGGTATCGACTTTCGGGACGTGCTA | 7.46 |
| TTAGGACTGGGTTTCAGTTAGTGCTAG | 1.61 |
| GACGAACTGGGCTATCGAGACGTGCTA | 0.263 |
| TAAGAACTGGGGTATCGATTAGTGCTA | 2.64 |
| GACGATATCAGTCTCGAGAAGTGCTAG | 1.44 |
| CTGCTGATCGGTTGGGGTGGGTGCTAG | 0.0821 |
| TTATGTATCCTTCTCCTTTAGTGCTAG | 0.866 |
| GACGGACTGGCTATCGGGACGTGCTAG | 0.325 |
| TTCGATATCAGTTTCGATTAGTGCTAG | 9.95 |
| GACGATTTCAGTTCCGAGACGTGCTAG | 1.38 |
| GACGATATCGGGTTTCGAGCCGTGCTA | 2.99 |
| GACCGACTGCTACTGCTGACGTGCTAG | -0.66 |
| TGATGTCTGGGTCTTGGTTCGTGCTAG | -0.614 |
| CAGTTTCTCTTTCCTTCTTGGTGCTAG | 6.96 |
| GACGGTATCGGGCTCGGGACGTGCTAG | 1.09 |
| TCAAAAAATGGAAATCTAACTGTGCTA | 0.492 |
| TTAGATCTCAGACCGGATTAGTGCTAG | -0.0172 |
| TTAGGTTCCGGTTTCGCTTAGTGCTAG | 6.41 |

Study 3
Target: ABI1, truncated, D143A, DHFR fusion (Arabidopsis thaliana)
Technique: DHFR PCA, deep sequencing
Matrix: yeast
Setting: methotrexate growth selection, single substitutions
Added: (+)-ABA 58 µM
Relative to: wild-type fitted maximum
Direction: higher = stronger binding
Starting sequence: PYL1, truncated, DHFR fusion (Arabidopsis thaliana); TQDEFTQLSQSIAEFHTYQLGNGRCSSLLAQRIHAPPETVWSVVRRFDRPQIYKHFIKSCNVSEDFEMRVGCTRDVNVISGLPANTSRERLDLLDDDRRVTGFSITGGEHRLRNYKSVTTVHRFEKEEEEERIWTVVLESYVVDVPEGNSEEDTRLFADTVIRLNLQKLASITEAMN; partner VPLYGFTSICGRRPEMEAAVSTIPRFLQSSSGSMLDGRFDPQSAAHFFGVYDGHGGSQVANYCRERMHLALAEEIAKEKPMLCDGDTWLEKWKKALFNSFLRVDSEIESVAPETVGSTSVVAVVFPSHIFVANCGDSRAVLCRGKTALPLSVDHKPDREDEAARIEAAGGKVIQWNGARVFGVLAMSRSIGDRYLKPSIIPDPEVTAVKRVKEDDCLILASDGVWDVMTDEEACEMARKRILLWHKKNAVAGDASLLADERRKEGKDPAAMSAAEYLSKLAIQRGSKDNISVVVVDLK
| Substitution | relative binding score |
| --- | --- |
| I162S | 6.58% |
| N165P | 3.64% |
| S117I | -1.55% |
| D95M | 56.6% |
| G81I | -19.1% |
| S59G | 78.3% |
| A84T | 14.1% |
| K126Q | 96.6% |
| S9Q | 93.4% |
| D95V | 19.3% |
| D96E | 90.8% |
| L91R | 0.399% |
| V70F | 21.7% |
| S27K | 30.4% |

Study 4
Target: CCNA1, cyclin fold, Cln2 fusion (human)
Technique: yeast growth competition, sequencing
Matrix: yeast
Setting: weak parent motif
Relative to: not given
Direction: higher = stronger binding
Starting sequence: PKN2 docking peptide (human); VSAVQKLDFSDTM; partner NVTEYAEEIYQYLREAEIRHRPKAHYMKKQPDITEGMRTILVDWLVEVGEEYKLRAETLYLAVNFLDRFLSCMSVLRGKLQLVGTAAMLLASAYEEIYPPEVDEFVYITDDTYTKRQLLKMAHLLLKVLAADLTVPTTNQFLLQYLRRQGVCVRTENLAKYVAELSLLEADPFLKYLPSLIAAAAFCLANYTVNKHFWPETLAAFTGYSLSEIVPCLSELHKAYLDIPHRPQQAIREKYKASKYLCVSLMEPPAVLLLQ
| Substitution | normalised enrichment score |
| --- | --- |
| S2G | 0.142 |
| F9V | 0.0233 |
| V4M | 0.278 |
| L7T | 0.0138 |
| S10W | 0.129 |
| S2E | -0.0348 |
| V1N | 0.149 |
| S2V | 0.263 |
| D8V | 0.213 |
| L7K | 0.0637 |
| S2K | 0.254 |
| K6C | 0.251 |
| F9N | 0.312 |
| V1L | 0.269 |
| T12L | 0.297 |
| M13G | 0.303 |
| M13F | 0.0985 |
| F9C | 0.156 |
| M13V | 0.252 |
| T12R | 0.13 |
| D11V | 0.232 |
| D8M | 0.217 |
| A3T | 0.12 |
| S2H | 0.134 |
| V1Y | 0.315 |

Study 5
Target: Sal-like protein 4, full length isoform B (SALL4, Homo sapiens, UniProt Q9UJQ4-2, residues 1-616)
Technique: universal PBM
Form: double-stranded DNA, one strand shown
Matrix: in vitro
Concentration: not given
Setting: 8-mer, flanks averaged, mean of replicates
Direction: higher = stronger binding
| Sequence | E-score |
| --- | --- |
| ACCATCGA | 0.0255 |
| ACAACTTC | 0.0725 |
| TAAAGTTA | 0.202 |
| GACAGCTA | 0.0755 |
| GAACGGAC | -0.151 |
| CGCTGTCC | -0.199 |
| ACTGTCCC | -0.205 |
| ATGATAAC | 0.339 |
| TATGAAGA | 0.301 |
| AGTTCACC | -0.0503 |
| GGTCCGAA | -0.0919 |
| ACGCTTGA | 0.0869 |
| CTAGCCCC | -0.212 |
| CATCGTAA | 0.111 |
| GGCCGTGA | -0.138 |
| ACAGTGAG | -0.025 |
| GCTCCATA | -0.0016 |
| AAGCTGAA | -0.0673 |
| CACGCCAC | -0.177 |
| ACAGGTGC | -0.129 |

Study 6
Target: CRIPT, C-terminal peptide
Technique: DHFR complementation, deep sequencing
Matrix: yeast
Setting: single substitutions, model-inferred values
Relative to: wild type
Direction: higher = weaker binding
Starting sequence: ERBIN, PDZ domain 1 (human); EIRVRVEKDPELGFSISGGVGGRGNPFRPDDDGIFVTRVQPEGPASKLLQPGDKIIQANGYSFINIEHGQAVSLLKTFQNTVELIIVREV; partner TKNYKQTSV
| Substitution | binding free energy change |
| --- | --- |
| G21E | -0.0433 kcal/mol |
| P51A | 0.11 kcal/mol |
| L75T | 1.37 kcal/mol |
| L74S | 0.17 kcal/mol |
| G60A | 0.117 kcal/mol |
| E7S | 0.0991 kcal/mol |
| E89R | 0.105 kcal/mol |
| D53L | 0.948 kcal/mol |
| F35C | 0.946 kcal/mol |
| R88S | 0.429 kcal/mol |
| R38W | 0.431 kcal/mol |
| L84S | 1.4 kcal/mol |
| I56G | -0.0541 kcal/mol |
| H68Y | 1.34 kcal/mol |
| K8A | 0.822 kcal/mol |
| L49T | -0.0555 kcal/mol |
| S73P | 1.21 kcal/mol |
| Q79C | 0.0313 kcal/mol |
| S46I | 0.145 kcal/mol |
| S46V | 0.105 kcal/mol |

Further values, each from its own experiment
| Molecule | target | assay | system | setting | how to read | endpoint | result |
| --- | --- | --- | --- | --- | --- | --- | --- |
| PhoQ, residues 284 288 289 292 302 303 ALAMYF | PhoP, residues 12 14 15 18 19 LHSVW (Escherichia coli, UniProt P23836) | Sort-seq, item: YFP reporter | E. coli | PhoQ-PhoP variant library, added: 10 µM Mg2+ | relative to: high Mg2+ state, higher = stronger signaling | fold induction | 3.47 |

Repeated from above (study 2):
| Sequence | log fluorescence [z-score] |
| --- | --- |
| TTAGATATAAGTATCGATTAGTGCTAG | 6.28 |
| TTAGGTTGCGGTTTCGGTTAGTGCTAG | 8.81 |
| GACGGTATCCTTCTTCTGACGTGCTAG | 0.277 |
| GACGGACAGGGGTTTCGGGACGTGCTA | 1.39 |
| TCACCTCTCTGTCCCCCTTTGTGCTAG | 0.262 |
| AACGGTATCGGACTGGGGACGTGCTAG | 1.24 |
| GTCGGTATCGACTTTCGGGACGTGCTA | 7.46 |
| TTAGGACTGGGTTTCAGTTAGTGCTAG | 1.61 |
| GACGAACTGGGCTATCGAGACGTGCTA | 0.263 |
| TAAGAACTGGGGTATCGATTAGTGCTA | 2.64 |
| GACGATATCAGTCTCGAGAAGTGCTAG | 1.44 |
| CTGCTGATCGGTTGGGGTGGGTGCTAG | 0.0821 |
| TTATGTATCCTTCTCCTTTAGTGCTAG | 0.866 |
| GACGGACTGGCTATCGGGACGTGCTAG | 0.325 |
| TTCGATATCAGTTTCGATTAGTGCTAG | 9.95 |
| GACGATTTCAGTTCCGAGACGTGCTAG | 1.38 |
| GACGATATCGGGTTTCGAGCCGTGCTA | 2.99 |
| GACCGACTGCTACTGCTGACGTGCTAG | -0.66 |
